Results from different studies.
Each numbered part is a random draw from the data of one study; scales do not carry over between parts.

Series 1
Target: Ras GTPase-activating protein-binding protein 1, RRM domain (G3BP1, Homo sapiens, UniProt Q13283)
Chain of UniProt Q13283 (whole entry, looked up): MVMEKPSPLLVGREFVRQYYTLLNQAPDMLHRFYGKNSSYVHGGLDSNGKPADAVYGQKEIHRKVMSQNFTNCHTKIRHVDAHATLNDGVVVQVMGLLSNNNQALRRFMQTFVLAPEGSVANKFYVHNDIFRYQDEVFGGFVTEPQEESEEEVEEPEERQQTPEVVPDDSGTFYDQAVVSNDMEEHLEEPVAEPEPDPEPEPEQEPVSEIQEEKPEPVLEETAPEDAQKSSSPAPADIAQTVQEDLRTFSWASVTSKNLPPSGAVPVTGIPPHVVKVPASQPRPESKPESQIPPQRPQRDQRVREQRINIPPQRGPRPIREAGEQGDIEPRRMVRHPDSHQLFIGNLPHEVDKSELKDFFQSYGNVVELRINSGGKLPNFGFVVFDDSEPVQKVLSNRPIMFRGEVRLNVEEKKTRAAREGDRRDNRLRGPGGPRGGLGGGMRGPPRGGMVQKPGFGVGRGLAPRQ
Technique: RNA Bind-n-Seq
Form: RNA
Sample: in vitro
Concentration: 1 µM
Notes: whole 134-nt RNA, ends assumed
Together with: 150 mM KCl
Relative to: input library
Direction: higher = stronger binding
Measurement: log2 enrichment
Shared flanks, not repeated: GGGAGUUCUACAGUCCGACGAUC … UGGAAUUCUCGGGUGUCAAGG
GCAGGAAGUAAAAACAAAUGGAAAUGCUUCGGAUAGUGGCAGGGGUGGGGGUUGCUACGGAAAGGGUGGGAUGGGAGUGGGUAAAGAGUU: 1.64
CCUCAAGUCCUGUGCUACACAUCGUAUGUACCGAAUCGGAGGGGAGGGGAGGGAAAGUAUUAUGUUACGCCGUUCGGAUCUGCACUUCCA: 0.335
UAACUUUAGAGGAGGAUCUGAUGGAUAUGGCAGUGGACUUGGAUUUGGGGAUGGCUAUAAUGGGUAUGGAGGAGGACCUGGAGGUGGCAA: -0.746
UCCUGUGCUACACAUCGUAUGUACCGAAUCGGGAAAAAAGGAAAAAAGGGGAAAAAAGGGAAAGUAUUAUGUUACGCCGUUCGGAUCUGC: 0.0302
CCUCAAGUCCUGUGCUACACAUCGUAUGUACCGAAUCGGAAGGGGAAGGAAGGAAAGUAUUAUGUUACGCCGUUCGGAUCUGCACUUCCA: -0.324
UAACUUUAGAGGAUGAUCUGAUGGAUAUGGCAGUGGACGUGGAUUUGGGGAUGGCUAUAAUGGGUAUGGAGGAGGACCUGGAGGUGGCAA: -0.909
UCCUGUGCUACACAUCGUAUGUACCGAAUCGGGGCCCCCCGGCCCCCCGGGCCCCCCGGAAAGUAUUAUGUUACGCCGUUCGGAUCUGCA: -0.353
UGGCCAUGGUGGCAUGCGGGGAGGAAGAGGUGGCCUCAUGGAUCGUGGUGGUCCCGGUGGAAUGUUCAGAGGUGGCCGUGGUGGAGACAG: 0.616
CAAGUCCUGUGCUACACAUCGUAUGUACCGAAUCGGGAAAGGGGAAAGGGAAAGGGAAAGUAUUAUGUUACGCCGUUCGGAUCUGCACUU: 0.638
GCAGGAAGUAAAAACAAUUGGAAAUGCUUCGGAUAGUGGCAGGGGUGGGGGUUGCUAAGGAAAGGGUGGGAUGGGAGUGGGUAAAGAGUU: 1.01
AGUCCUGUGCUACACAUCGUAUGUACCGAAUCGGGGUGGGGAAAGGGGUUUUUGGGGAAAGUAUUAUGUUACGCCGUUCGGAUCUGCACU: 1.17
AGGCCCUGGUGGCAUGCGGGGAGGAAGAGGUGGCCUCAUGGAUCGUGGUGGUCCCGGUGGAAUGUUCAGAGGUGGCCGUGGUGGAGACAG: 1.12
ACCAUGCAGGUGGGCAUCUUUGGGAAGUGGGGCAAGGGGGGGAUAGUGAGGGGGGUAACACUUUGGGAACAGGUGGUCCCAGGUCGUUUC: 0.993
UAACUUUAGAGGAGGAUCUGAUGGAUAUGGCAGUGGACGUGGAUUUGGGGAUGGCUAUAAUGGGUAUGGAGGACGACCUGGAGGUGGCAA: -0.427

Series 2
Target: Interferon regulatory factor 5, full length, phosphomimetic (IRF5, Homo sapiens, UniProt Q13568-2, residues 1-514, K96S/S451D/S453D/S456D/S462D)
Technique: protein-binding microarray
Form: double-stranded DNA, one strand shown
Sample: in vitro
Concentration: 250 nM
Notes: 60-bp whole probe
Together with: salmon DNA 0.4 mg/ml
Relative to: random background probes
Direction: higher = stronger binding
Measurement: log fluorescence
Shared flanks, not repeated: GCCTAGCAC … GTCTTGATTCGCTTGACGCTGCTG
AGCCATCTGCAGCAGGCCCCGTGCTAG: -0.595 z-score
GACGGTCTCCTTATTCTGACGTGCTAG: 0.0451 z-score
GTGAGTCCCACATCTCTGTCCGTGCTA: -0.307 z-score
TGACAGCAGGAACATGGGCTGTGCTAG: -0.343 z-score
GACGGACTGGGTCTCGCGACGTGCTAG: -0.724 z-score
TCAAGTTGGACCTCTCAGACTGTGCTA: -0.432 z-score
GACGGTTACCTTTTCCTGACGTGCTAG: 0.51 z-score
TTCTAAATATCTTTGTTGAAGTGCTAG: 0.632 z-score
CCACATCTCTGTCCGTGCTCGTGCTAG: -0.158 z-score
GACGATTTCCGTCTCGAGACGTGCTAG: 0.682 z-score
TCACTTTACACACATCATCTTGTGCTA: 1.17 z-score
GACGATACCAGTCTCGAGACGTGCTAG: 0.523 z-score
TTAGGTTTCGGTTCCGGCTAGTGCTAG: 9.92 z-score
GACGATTCCACTTTCGAGACGTGCTAG: 6.86 z-score
GACGGTCTCCTTATCTTGACGTGCTAG: -0.065 z-score
TTAGAACTGAGTTTCCATTAGTGCTAG: 1.13 z-score
TCAGATATCGGGACTGGATTAGTGCTA: 0.925 z-score
CATGAATCAGGCATAGCATGGTGCTAG: -0.566 z-score
GACGGTCTCCTTCTCATGACGTGCTAG: -0.0244 z-score
TTAGGACTGGCCTATCGGTTAGTGCTA: 1.44 z-score
GACGGTATCGGGCATCGGGACGTGCTA: 1.35 z-score
CTGCCTAACATGCTTCGAGATGTGCTA: -0.152 z-score
TTACGTATCGGACTGGGTTAGTGCTAG: 2.24 z-score
GACGTACTGCTTTTCCTGACGTGCTAG: 0.00182 z-score
GACGGATTGGGGTATCGGGACGTGCTA: 0.112 z-score

Series 3
Target: Histone acetyltransferase KAT6A, both winged helices, GST fusion (KAT6A, Homo sapiens, UniProt Q92794, residues 1-181)
Technique: protein binding microarray
Form: double-stranded DNA, one strand shown
Sample: in vitro
Concentration: not given
Notes: 8-mer, flanks averaged, mean of 2 arrays, mostly near background
Relative to: not given
Direction: higher = stronger binding
Measurement: E-score
Construct (chain): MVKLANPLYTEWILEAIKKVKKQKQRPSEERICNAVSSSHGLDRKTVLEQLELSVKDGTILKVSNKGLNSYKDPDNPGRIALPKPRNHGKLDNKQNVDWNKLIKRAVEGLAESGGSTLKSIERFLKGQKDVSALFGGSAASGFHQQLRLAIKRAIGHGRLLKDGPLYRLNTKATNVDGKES
TACGAATA: -0.175
AGAAACAC: 0.0296
TTATATAA: 0.073
TATAGGGA: -0.136
AAGTAATT: -0.174
AAGAATCC: -0.066
AAGCCTGC: -0.036
CAACTGAA: -0.0382
AGTAAGTA: -0.0954
CCGACGCC: 0.3
CGGCGCTA: 0.36
AGGGCGAC: 0.0178
AGCCAGGA: -0.0897
CTGACCAA: -0.0788
CTTGGGCA: -0.0208
AGAGACCT: -0.121
ACGCGCTC: 0.298
CCGCTTCG: 0.262
CCTTAGAG: -0.142
GAAGGCGA: 0.0948
AGCAAGAA: -0.113
GTTTCCCA: -0.0915
CGCCTGTC: 0.0289

Series 4
Target: RNA binding protein fox-1 homolog 2, RRM domain, GST-SBP tag (RBFOX2, Homo sapiens, UniProt O43251-10, residues 100-194)
Technique: RNA Bind-n-Seq
Form: RNA
Sample: in vitro
Concentration: 365 nM
Notes: natural RNA segment, single round, ends assumed
Relative to: no-protein control
Direction: higher = stronger binding
Measurement: RBNS enrichment (R)
Shared flanks, not repeated: GGGAGUUCUACAGUCCGACGAUC … UGGAAUUCUCGGGUGCCAA
Target sequence (chain): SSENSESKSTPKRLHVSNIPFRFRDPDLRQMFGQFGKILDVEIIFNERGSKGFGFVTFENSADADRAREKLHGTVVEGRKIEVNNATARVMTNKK
GGCCAUGCUCUGUUCCCAGCAGCCGCGCAGGUUUCCCCACUGGCUGCAAUGGCCCUACCAAAAGCCAUGUUGCAUAUCCGUUGUAAGCACGUGCCCUGUGCCCUGUCCCC: 0.461
CAGAGCAGACCAGGCUGCCUCAGAGCAUACACCUUAUAAUGCAACCCACUUCAGCUGGCUUUGGGGAAAGGGGCAUCAAAUUCAGCCUGCCCCAAGGUUGUCAGAGUCAA: 0.392
CACACCACAAAUCUGCAGUUCAUUCUGUUUAUCCCAGGCAUUAAAUUCCUAAUUUCUCUAGAUAUUUAAGAAUGGCACACACUUUAAAUAUUUAUGGGUGAAUUGAUGCC: 0.736
GAGGUCUCCUGAGGACCUGGGCCUGUUCUGCUCCUAGGAGACCUGAGCCCGUUACCGCGUGACUCCCACCAUCCAGCUCGCGCUCCUCGUGGAUUCAGCCAUGCAUGGAC: 0.705
AUUAUUGGGUCUCUGCCUUAAAACACAUCAAAAUUCAUUUUAGACAAAAAAACUUCUGCUUUGUCUUUGGUCAUUAGGGAGCUCUAAUGUGUGUUUGUGGCUCCAAGUUA: 0.517
CUAUUAUGAAAUAAGUAAAGGUAGAAAAAUAAUGGUCUGUUGUUACUUAAGAAUACUCCUGGCAUAAGUUACUAGAAGUGGUGUGUAUAUAUUCGGGGGAGUAAGGAAAU: 0.838
CCCUGAGCUUGCUUUCCACAUUCUCCCAGGGUAUGGAGACCUAGACCUGUCUUUGGGGCCAUUAGCAUCUGGGGUUAUAGCAAGAAGAGUGGGGAGCAUGGAACUCCUGG: 0.543
UUUAUUGCUUCUUACUGAUACUGACUUAGAAAGCUUUCUGGGUUUUGUAUUUGUUUUAAGAAACAUUGGUUCCUAUGUAUUUUAGCAUUUUUGGUGAUUUCAAUUGACUU: 0.313
AAGAACCCACUGCUCACAGCACUGAUGGCUUGGUUCUCCCAGAUUCUAUCCCCUGGAACUUAUGCAUUACAUGUAUUCAGAUAGUAUCUCAACGAUUAUAGAGAGCCUUU: 0.481
CUAUUUGAGGAAAGUAUUAUUUGUCUUAAAGGGUAACAGCCUCAUGAAAUGACUUGAGGAUUCCAAUUUCUUAUUAGCUUAAGAUGUCACUUAAAAGCUGACAGCCCUCA: 0.525
UGCAGUUUGCCAACUUGUCUGCGUGCCAGCCAGCCACAGGGUGAUUCCAGAAGAGAGCUAUUUAAACUGGUGGACAUGGGAUUGGAGUCUGGUGUUAGAUUGUUUUGAAU: 0.581
UUCUAGUUCUUUAAAUGAGACAAUCACUUUGUUUUCUAAUAGAUGUGACCUGUGUAACUUAAAAAAUCUGAGGGUUUGAGAGAGGUUGCUCUAGAUUUCCAAUGACGAUA: 0.35

Some of these lines once more (series 3):
AGAAACAC: 0.0296
TTATATAA: 0.073
CCGCTTCG: 0.262
ACGCGCTC: 0.298
CGGCGCTA: 0.36
GTTTCCCA: -0.0915
CGCCTGTC: 0.0289
TATAGGGA: -0.136
TACGAATA: -0.175
AGGGCGAC: 0.0178
